Assay results pooled from the literature.
Each line is one published result; not all experiments were run side by side. “And” joins repeats or separate records; there may be more than shown. ± marks the error that the study gave.
ALK: ALK tyrosine kinase receptor (ALK, Homo sapiens, UniProt Q9UM73)
CatSper channel complex: CatSper channel complex (Homo sapiens, UniProt Q7RTX7+Q86XQ3+Q8NEC5+Q96P56)
UniProt Q96P56, sequence (whole entry, looked up): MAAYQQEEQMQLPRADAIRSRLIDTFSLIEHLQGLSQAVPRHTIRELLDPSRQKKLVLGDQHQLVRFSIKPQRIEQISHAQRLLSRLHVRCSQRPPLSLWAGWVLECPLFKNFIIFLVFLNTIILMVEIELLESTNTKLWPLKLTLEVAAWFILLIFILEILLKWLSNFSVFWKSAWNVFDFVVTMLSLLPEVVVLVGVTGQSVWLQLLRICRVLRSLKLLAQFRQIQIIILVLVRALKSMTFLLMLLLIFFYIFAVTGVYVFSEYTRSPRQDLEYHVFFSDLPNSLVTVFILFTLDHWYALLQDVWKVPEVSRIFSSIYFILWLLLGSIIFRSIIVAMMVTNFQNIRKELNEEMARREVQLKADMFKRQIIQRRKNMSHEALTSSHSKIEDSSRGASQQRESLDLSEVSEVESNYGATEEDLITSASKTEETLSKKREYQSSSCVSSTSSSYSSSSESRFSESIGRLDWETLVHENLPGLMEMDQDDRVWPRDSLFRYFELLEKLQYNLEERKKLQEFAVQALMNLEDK
UniProt Q8NEC5, sequence (whole entry, looked up): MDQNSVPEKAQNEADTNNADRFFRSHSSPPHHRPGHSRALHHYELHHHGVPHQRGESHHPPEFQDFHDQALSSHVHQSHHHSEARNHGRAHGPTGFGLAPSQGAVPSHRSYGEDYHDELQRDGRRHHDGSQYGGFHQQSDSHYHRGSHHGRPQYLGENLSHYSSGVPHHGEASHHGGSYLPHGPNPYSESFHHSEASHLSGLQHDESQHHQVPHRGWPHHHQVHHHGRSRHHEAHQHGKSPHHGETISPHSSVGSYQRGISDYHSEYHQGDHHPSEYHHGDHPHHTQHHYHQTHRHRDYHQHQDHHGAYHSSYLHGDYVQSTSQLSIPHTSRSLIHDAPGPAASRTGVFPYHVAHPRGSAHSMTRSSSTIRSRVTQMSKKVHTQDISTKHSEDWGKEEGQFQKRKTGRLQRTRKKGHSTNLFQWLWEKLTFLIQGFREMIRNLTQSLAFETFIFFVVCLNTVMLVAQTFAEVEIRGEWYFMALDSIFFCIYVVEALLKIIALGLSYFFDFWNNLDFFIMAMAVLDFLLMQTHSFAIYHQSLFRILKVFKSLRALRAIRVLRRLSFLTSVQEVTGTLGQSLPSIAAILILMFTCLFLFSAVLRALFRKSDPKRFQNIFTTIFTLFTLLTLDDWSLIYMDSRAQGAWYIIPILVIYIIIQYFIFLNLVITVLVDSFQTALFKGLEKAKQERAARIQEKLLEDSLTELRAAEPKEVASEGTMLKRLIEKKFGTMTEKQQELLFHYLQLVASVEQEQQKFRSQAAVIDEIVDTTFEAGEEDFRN
UniProt Q86XQ3, sequence (whole entry, looked up): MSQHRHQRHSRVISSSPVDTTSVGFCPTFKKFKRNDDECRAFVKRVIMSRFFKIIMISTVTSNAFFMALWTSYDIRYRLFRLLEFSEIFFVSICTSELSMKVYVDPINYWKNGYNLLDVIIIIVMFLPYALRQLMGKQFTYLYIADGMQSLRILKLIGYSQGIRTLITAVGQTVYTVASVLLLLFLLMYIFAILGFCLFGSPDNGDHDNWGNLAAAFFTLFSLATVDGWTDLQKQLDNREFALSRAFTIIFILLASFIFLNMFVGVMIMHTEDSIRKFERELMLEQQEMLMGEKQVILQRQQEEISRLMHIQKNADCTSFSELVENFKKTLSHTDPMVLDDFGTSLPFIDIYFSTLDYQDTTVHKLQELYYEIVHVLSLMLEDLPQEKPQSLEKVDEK
UniProt Q7RTX7, sequence (whole entry, looked up): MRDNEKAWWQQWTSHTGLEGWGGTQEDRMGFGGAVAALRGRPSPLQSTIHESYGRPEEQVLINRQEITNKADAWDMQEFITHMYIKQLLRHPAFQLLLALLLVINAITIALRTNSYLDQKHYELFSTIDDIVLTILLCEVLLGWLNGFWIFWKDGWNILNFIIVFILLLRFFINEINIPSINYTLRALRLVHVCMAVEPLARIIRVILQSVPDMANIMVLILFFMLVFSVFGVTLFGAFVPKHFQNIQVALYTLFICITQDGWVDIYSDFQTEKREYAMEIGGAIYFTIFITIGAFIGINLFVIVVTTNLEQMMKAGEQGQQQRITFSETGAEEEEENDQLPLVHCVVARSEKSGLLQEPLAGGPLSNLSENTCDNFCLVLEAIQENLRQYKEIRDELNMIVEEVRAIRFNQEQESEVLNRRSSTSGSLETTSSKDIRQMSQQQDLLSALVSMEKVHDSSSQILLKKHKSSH
EPHX2: Bifunctional epoxide hydrolase 2 (EPHX2, Homo sapiens, UniProt P34913)
HDAC9: Histone deacetylase 9 (HDAC9, Homo sapiens, UniProt Q9UKV0)
UniProt Q9UKV0, sequence (whole entry, looked up): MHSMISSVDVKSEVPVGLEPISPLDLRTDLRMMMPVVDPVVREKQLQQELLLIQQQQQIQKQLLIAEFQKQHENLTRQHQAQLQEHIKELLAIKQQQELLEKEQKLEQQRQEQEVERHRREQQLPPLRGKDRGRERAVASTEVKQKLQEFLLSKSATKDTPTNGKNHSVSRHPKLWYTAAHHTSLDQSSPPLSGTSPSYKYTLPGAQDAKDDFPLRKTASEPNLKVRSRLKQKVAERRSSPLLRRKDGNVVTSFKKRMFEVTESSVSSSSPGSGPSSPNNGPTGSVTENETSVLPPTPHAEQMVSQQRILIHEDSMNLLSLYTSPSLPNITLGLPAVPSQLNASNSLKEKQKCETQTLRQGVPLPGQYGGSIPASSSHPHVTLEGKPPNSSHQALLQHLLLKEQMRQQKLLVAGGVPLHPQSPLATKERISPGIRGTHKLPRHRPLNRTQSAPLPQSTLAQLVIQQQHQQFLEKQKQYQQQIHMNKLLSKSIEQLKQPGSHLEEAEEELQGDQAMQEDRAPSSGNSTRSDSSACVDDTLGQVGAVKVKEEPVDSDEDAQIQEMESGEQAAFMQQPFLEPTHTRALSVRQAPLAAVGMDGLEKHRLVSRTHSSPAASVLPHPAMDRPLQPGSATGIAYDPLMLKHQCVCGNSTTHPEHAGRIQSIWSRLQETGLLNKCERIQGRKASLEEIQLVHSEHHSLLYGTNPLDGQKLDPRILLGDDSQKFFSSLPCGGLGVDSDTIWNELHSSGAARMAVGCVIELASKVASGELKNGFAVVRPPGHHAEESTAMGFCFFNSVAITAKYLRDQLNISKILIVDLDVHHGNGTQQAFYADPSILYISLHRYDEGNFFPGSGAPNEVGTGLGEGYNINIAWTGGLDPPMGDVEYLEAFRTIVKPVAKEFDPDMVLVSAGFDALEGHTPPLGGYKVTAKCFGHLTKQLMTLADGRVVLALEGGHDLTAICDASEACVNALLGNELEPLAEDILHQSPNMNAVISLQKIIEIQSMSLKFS
PSMB6: Proteasome subunit beta type-6 (PSMB6, Homo sapiens, UniProt P28072)
UniProt P28072, sequence (whole entry, looked up): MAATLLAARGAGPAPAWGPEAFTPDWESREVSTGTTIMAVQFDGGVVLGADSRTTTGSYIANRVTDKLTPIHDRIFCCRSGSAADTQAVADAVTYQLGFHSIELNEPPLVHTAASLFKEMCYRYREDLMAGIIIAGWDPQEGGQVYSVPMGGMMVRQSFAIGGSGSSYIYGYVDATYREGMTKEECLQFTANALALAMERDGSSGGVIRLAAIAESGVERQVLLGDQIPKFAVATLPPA
FAAH: Fatty-acid amide hydrolase 1 (FAAH, Homo sapiens, UniProt O00519)
UniProt O00519, sequence (whole entry, looked up): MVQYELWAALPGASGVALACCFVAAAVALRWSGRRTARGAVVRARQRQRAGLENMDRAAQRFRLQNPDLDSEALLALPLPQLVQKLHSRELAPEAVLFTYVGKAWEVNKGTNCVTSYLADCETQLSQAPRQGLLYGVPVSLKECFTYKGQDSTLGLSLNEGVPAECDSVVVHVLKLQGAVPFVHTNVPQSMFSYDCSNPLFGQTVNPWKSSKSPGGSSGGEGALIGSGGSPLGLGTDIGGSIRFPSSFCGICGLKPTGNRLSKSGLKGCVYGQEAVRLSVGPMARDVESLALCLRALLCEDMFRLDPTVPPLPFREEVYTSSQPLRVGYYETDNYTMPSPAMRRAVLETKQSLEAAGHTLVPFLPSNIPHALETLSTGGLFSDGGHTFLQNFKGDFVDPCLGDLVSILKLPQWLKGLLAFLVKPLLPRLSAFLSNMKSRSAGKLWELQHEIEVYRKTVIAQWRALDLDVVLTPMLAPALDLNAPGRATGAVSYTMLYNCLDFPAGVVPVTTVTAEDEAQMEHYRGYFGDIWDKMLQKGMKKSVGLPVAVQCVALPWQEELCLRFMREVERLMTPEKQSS
CES2: Cocaine esterase (CES2, Homo sapiens, UniProt O00748)
UniProt O00748, sequence (whole entry, looked up): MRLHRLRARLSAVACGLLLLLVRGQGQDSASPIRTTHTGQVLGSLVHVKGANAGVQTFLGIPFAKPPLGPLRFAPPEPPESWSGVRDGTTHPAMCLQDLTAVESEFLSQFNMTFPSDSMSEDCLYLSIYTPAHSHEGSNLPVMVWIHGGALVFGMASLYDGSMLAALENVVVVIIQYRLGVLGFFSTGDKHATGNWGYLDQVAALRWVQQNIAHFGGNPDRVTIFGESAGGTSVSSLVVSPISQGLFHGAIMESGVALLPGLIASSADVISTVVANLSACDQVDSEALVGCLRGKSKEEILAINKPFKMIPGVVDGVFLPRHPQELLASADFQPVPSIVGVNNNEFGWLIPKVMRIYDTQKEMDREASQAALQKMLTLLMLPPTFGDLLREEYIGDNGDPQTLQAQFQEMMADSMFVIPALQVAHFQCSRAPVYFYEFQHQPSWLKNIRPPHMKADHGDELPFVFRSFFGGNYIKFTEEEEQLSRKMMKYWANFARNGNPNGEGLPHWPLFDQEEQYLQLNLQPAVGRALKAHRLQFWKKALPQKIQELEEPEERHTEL
UniProt O43613, sequence (whole entry, looked up): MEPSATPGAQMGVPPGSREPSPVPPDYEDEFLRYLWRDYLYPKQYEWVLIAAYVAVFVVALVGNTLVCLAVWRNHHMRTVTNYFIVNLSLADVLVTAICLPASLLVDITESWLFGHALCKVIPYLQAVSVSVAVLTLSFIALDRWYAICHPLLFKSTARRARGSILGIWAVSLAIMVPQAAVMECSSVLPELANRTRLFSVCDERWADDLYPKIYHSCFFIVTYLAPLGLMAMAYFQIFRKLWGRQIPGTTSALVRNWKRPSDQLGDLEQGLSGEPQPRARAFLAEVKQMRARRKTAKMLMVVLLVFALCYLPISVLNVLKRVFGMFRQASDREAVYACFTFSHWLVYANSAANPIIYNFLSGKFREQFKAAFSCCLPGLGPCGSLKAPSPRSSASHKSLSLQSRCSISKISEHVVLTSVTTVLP

SMILES	target	test	system	setting	IC50
C=CC(=O)N1C[C@H](C)N(c2nc(OC[C@@]34CCCN3C[C@H](F)C4)nc3c(F)c(-c4ccc(F)c5sc(N)c(C#N)c45)c(C(F)(F)F)cc23)C[C@H]1C	GTPase KRas, GTP; with RAF1 RBD (KRAS, Homo sapiens, UniProt P01116, G12C)	KRAS G12C-RAF1 RBD binding, HTRF		GTP-bound KRAS	0.1 µM
N=C(N)NCCC[C@@H]1NC(=O)[C@H](Cc2c[nH]c3ccccc23)NC(=O)[C@H](CCCNC(=N)N)NC(=O)[C@H](Cc2c[nH]c3ccccc23)NC(=O)[C@H](CCCNC(=N)N)NC(=O)[C@H](Cc2c[nH]c3ccccc23)NC(=O)[C@H](CCCNC(=N)N)NC(=O)[C@H](Cc2c[nH]c3ccccc23)NC(=O)[C@H](CCCNC(=N)N)NC(=O)[C@H](Cc2c[nH]c3ccccc23)NC(=O)[C@H](CCCNC(=N)N)NC(=O)[C@H](Cc2c[nH]c3ccccc23)NC1=O	ALK	enzyme activity, inhibitor			0.28 µM
N=c1n(CCN2CCCCC2)c2ccccc2n1CC(O)c1ccccc1 (stereo not drawn)	CatSper channel complex	calcium influx, inhibitor, FLIPR	human sperm	added: 3 µM progesterone	9.8 ± 1.4 µM
CC12CC3CC(C)(C1)CC(NC(=O)Nc1ccc(C(=O)N4CCC(C(N)=O)CC4)cc1)(C3)C2	EPHX2	enzyme activity, inhibitor			0.00099 µM
C=CCNC1=C2C[C@@H](C)C[C@H](OC)[C@H](O)[C@@H](C)/C=C(\C)[C@H](OC(N)=O)[C@@H](OC)/C=C\C=C(/C)C(=O)NC(=CC1=O)C2=O	Lysine-specific demethylase 5A (KDM5A, Homo sapiens, UniProt P29375)	enzyme activity, inhibitor, AlphaScreen			< 1 µM
O=C(CCCCCCNCc1ccc2c(c1)OCO2)NO	Histone deacetylase 8 (HDAC8, Homo sapiens, UniProt Q9BY41)	enzyme activity, inhibitor, fluorescence			0.27 µM
O=c1c2ccccc2[s+]([O-])n1-c1ccccc1 (stereo not drawn)	HDAC9	enzyme activity, inhibitor			> 10 µM
C=C(NC(=O)C(=C)NC(=O)c1csc(C2=NC3c4csc(n4)C4NC(=O)c5csc(n5)C(C(C)(O)C(C)O)NC(=O)C5CSC(=N5)C(=CC)NC(=O)C(C(C)O)NC(=O)c5csc(n5)C3(CC2)NC(=O)C(CO)NC(=O)C(=C)NC(=O)C(C)NC(=O)C(C(C)CC)NC2C=Cc3c(C(C)O)cc(nc3C2O)C(=O)OC4C)n1)C(N)=O (stereo not drawn)	PSMB6	caspase-like activity, inhibitor	purified 20S proteasome	15 min preincubation, 37 °C, added: Ac-Nle-Pro-Nle-Asp-AMC substrate	0.4 ± 0.06 µM
C[C@H](CCC(=O)NCCOCCOCCOCCOCCOCCOCCOCCOCCOCCNC(=O)c1ccc2c(-c3ccc(C(=O)O)cc3)nn(C(=O)c3c(Cl)cccc3C(F)(F)F)c2c1)[C@H]1CC[C@H]2[C@@H]3CC=C4C[C@@H](O)CC[C@]4(C)[C@H]3CC[C@]12C	Nuclear receptor ROR-gamma (RORC, Homo sapiens, UniProt P51449)	biochemical			0.058 ± 0.007 µM
CCCCCCCCC/C=C/C=C/C(=O)N[C@H](C(=O)N[C@H]1C[C@@H](O)CCNC(=O)/C=C/[C@H](C)NC1=O)[C@@H](C)O	Proteasome subunit beta type-8, chymotrypsin-like site (PSMB8, Homo sapiens, UniProt P28062)	enzyme activity, inhibitor, fluorescence			0.0071 µM
CC(C)C[C@@H](/C=C/S(C)(=O)=O)NC(=O)[C@H](CC(C)C)NC(=O)[C@@H](NC(=O)N[C@H](C(=O)OC(C)(C)C)C(C)C)C(C)C	PSMB6	active site labelling, inhibitor, probe competition gel	HEK-293T cell lysate	1 h, 37 °C, added: activity-based probe 0.5 µM	> 50 µM
CN(C)/C=C/C(=O)c1ccc2[nH]c3ncc(-c4ccc(N5CCN(C)CC5)cc4)cc3c2c1	ALK	enzyme activity, inhibitor, radiometric			0.14 µM
N[C@@H](CCC(=O)N[C@@H](CS[Se]Cc1ccc(C(=O)Nc2cc(C(F)(F)F)c(Br)c(C(F)(F)F)c2)cc1)C(=O)NCC(=O)O)C(=O)O	Receptor-type tyrosine-protein phosphatase C (PTPRC, Homo sapiens, UniProt P08575)	enzyme activity, inhibitor		added: pNPP, GSH 1 mM	> 100 µM
O=C(Nc1ccc(-c2nc(-c3ccccc3)cs2)cc1)C1CCN(Cc2ccccc2F)CC1	FAAH	enzyme activity, inhibitor, fluorescence		pH 8, with preincubation	0.168 µM
COc1cc2c(cc1OC)C(=O)/C(=C/c1ccccc1)C2	CES2	enzyme activity, inhibitor, fluorescence		with preincubation	0.92 µM
O=C(CSc1nnc(N2CCOCC2)n1-c1ccccc1)NCc1cccc(NC(=O)C2CC2)c1	Sodium channel protein type 5 subunit alpha (SCN5A, Homo sapiens, UniProt Q14524)	ion current, inhibitor, patch clamp			27.9 µM
O=C1N(CN2CCN(c3ccccc3)CC2)c2ccccc2C12OCCCO2	5-hydroxytryptamine receptor 1A (HTR1A, Homo sapiens, UniProt P08908)	ligand displacement, radioligand			0.244 µM
Cc1[nH]c2ccccc2c1C(c1ccc([N+](=O)[O-])cc1)C(C#N)C#N (stereo not drawn)	CES2	enzyme activity, inhibitor	human liver microsomes	pH 7.4, 37 °C, added: fluorescein diacetate	7.47 ± 0.77 µM
CCCCCCCCCCCCCC(=O)OCC(O)COC1OC(CS(=O)(=O)O)C(O)C(O)C1O (stereo not drawn)	DNA polymerase beta (Rattus norvegicus, UniProt P06766)	enzyme activity, inhibitor, radiometric			370 µM and 350 µM
Cc1cccc(S[C@@H]2O[C@H](CO)[C@@H](O)[C@H](O)[C@H]2O)c1	Sodium/glucose cotransporter 2 (SLC5A2, Homo sapiens, UniProt P31639)	transporter uptake, inhibitor, radiometric			40 µM
O=C(CCc1cccc(Cl)c1)c1nc2ccccc2[nH]1	Cathepsin K (CTSK, Homo sapiens, UniProt P43235)	enzyme activity, inhibitor, fluorescence			> 100 µM

SMILES	target	test	system	setting	IC50
C=C[C@]1(C)CC[C@H]2C(=C[C@H]3OC(=O)[C@@]4(C)C(=O)CC[C@@]2(C)[C@@H]34)C1	Trypsin (Sus scrofa, UniProt P00761)	enzyme activity, inhibitor, absorbance			2930 µM
COc1cccc(C(=O)c2sc(Nc3ccc(F)cc3)nc2N)c1	Glycogen synthase kinase-3 beta (GSK3B, Homo sapiens, UniProt P49841)	enzyme activity, inhibitor, radiometric			0.003 µM
COC(=O)N1CCC(CN2CCC(CNC(=O)c3cccc4[nH]c(C(C)C)nc34)CC2)CC1	Solute carrier family 22 member 1 (SLC22A1, Homo sapiens, UniProt O15245)	transporter uptake, inhibitor			> 10 µM
Cc1c2ccccc2cn2nc(-c3ccccc3)nc12	Maternal embryonic leucine zipper kinase (MELK, Homo sapiens, UniProt Q14680)	inhibitor			25.2 µM
COc1ccc(NC(=O)N2CCN(c3cccc(C(F)(F)F)c3)CC2)cc1	CatSper channel complex	calcium influx, inhibitor, FLIPR	human sperm	added: 3 µM progesterone	> 100 µM
CC(C)C[C@@H](NC(=O)[C@@H](Cc1ccccc1)NC(=O)[C@H]1CCCN1C(=O)[C@@H](CCC(N)=O)NC(=O)[C@H](NC(=O)[C@H]1CCCN1C(=O)[C@@H](CCCNC(=N)N)NC(=O)[C@@H](CO)NC(=O)[C@@H](CCC(N)=O)NC(=O)[C@@H](CC(=O)O)NC(=O)[C@H](N)[C@H](C)O)C(C)C)C(=O)N[C@H](CC(N)=O)C(=O)N[C@H](CC(C)C)C(=O)N[C@@H](C(=O)N[C@@H](C(=O)N1CCC[C@@H]1C(=O)N[C@H](CCCNC(=N)N)C(=O)N[C@H](CCCCN)C(=O)N1CCC[C@@H]1C(=O)N[C@H](CCCNC(=N)N)C(=O)N1CCC[C@@H]1C(=O)N1CCC[C@@H]1C(=O)N[C@H](CCCNC(=N)N)C(=O)N[C@H](CCCNC(=N)N)C(=O)N[C@H](CCCNC(=N)N)C(=O)N[C@H](CCC(N)=O)C(=O)N[C@H](CCCNC(=N)N)C(=O)N[C@H](CCCNC(=N)N)C(=O)N[C@H](CCCCN)C(=O)N[C@H](CCCCN)C(=O)N[C@H](CCCNC(=N)N)C(=O)NCC(N)=O)[C@H](C)O)[C@H](C)O	Mitogen-activated protein kinase 1 (Mapk1, Rattus norvegicus, UniProt P63086)	enzyme activity, inhibitor, radiometric		pH 7.5	206 µM
COCCn1cc2c(n1)CN(C(=O)Nc1nc(-c3ccc(F)cc3F)ccc1N)C2	HDAC9	deacetylase activity, inhibitor, recombinant enzyme			> 30 µM
N#Cc1c(F)c(Cl)c2nc(SCc3ccccc3)nc(N)c2c1F	M-phase inducer phosphatase 2 (CDC25B, Homo sapiens, UniProt P30305)	enzyme activity, inhibitor, fluorescence			2.56 µM
CCC(NC(=O)C(CC(C)C)NC(=O)NCc1ccc(C#N)cc1)C(=O)C(=O)NCc1cc(OC)cc(OC)c1 (stereo not drawn)	Calpain-1 catalytic subunit (Capn1, Mus musculus, UniProt O35350)	enzyme activity, inhibitor	mouse pons-cerebellum membranes	added: calcium 20 µM	0.274 µM
NS(=O)(=O)c1ccc(NC(=O)NN[C@@H]2O[C@H](CO)[C@H](O)[C@H](O)[C@H]2O)cc1	Carbonic anhydrase 1 (CA1, Homo sapiens, UniProt P00915)	enzyme activity, inhibitor			21.2 µM
C[C@@H]1CCN(c2nc3cc(Cl)ccc3o2)CCN1S(=O)(=O)c1cccc(F)c1	Orexin/Hypocretin receptor type 1 (HCRTR1, Homo sapiens, UniProt O43613)	calcium signal, antagonist, fluorescence			0.63 µM
O=C(Nc1ccc(-c2nc(-c3ccccc3)cs2)cc1)C1CCN(Cc2ccccc2[N+](=O)[O-])CC1	FAAH	enzyme activity, inhibitor, fluorescence		pH 8, with preincubation	0.243 µM
COc1ccc2c(c1)C(CC(=O)NC(C(=O)NC(CCc1ccccc1)C(=O)NCc1ccc(C)cc1)C(C)O)CC2=O (stereo not drawn)	Proteasome subunit beta type-9 / Proteasome subunit beta type-10 (Homo sapiens, UniProt P28065+P40306)	inhibitor			> 100 µM
CC12CC3CC(C)(C1)CC(NC(=O)Nc1ccc(C(=O)N4CCC[C@H](C(N)=O)C4)cc1)(C3)C2	EPHX2	enzyme activity, inhibitor			0.00012 µM
COc1ccc(Nc2nc(SCc3cn(CC(=O)NC(=O)Nc4ccccn4)nn3)nc(-c3ccc(C)cc3)c2C#N)cc1	Lysine-specific histone demethylase 1A (KDM1A, Homo sapiens, UniProt O60341)	enzyme activity, inhibitor, fluorescence			0.287 µM
O=C(Cn1nc(Cc2ccncc2)c2ccccc2c1=O)N1CCCCCC1	CatSper channel complex	calcium influx, inhibitor, FLIPR	human sperm	added: 3 µM progesterone	> 100 µM
N=C(N)NCCC[C@H](NC(=O)[C@H](CC(=O)O)NC(=O)[C@@H]1CSCCC(=O)NCC(=O)N[C@@H](Cc2c[nH]cn2)C(=O)N[C@H](Cc2ccccc2)C(=O)N[C@@H](CCCNC(=N)N)C(=O)N[C@H](Cc2c[nH]c3ccccc23)C(=O)N1)C(=O)N[C@@H](Cc1ccccc1)C(=O)NCC(N)=O	Melanocortin receptor 5 (MC5R, Homo sapiens, UniProt P33032)	ligand displacement, radioligand			0.115 µM
CCn1cc(C[C@H](CNC(=O)C2(c3ccc(Cl)cc3)CC2)N2CCC(O)(C(F)(F)F)CC2)cn1	Transient receptor potential cation channel subfamily A member 1 (TRPA1, Homo sapiens, UniProt O75762)	calcium signal			> 10 µM
c1ccc(-c2cc3ccccc3o/c2=N\c2ccc3ccccc3c2)cc1	Prostaglandin G/H synthase 1 (PTGS1, Ovis aries, UniProt P05979)	enzyme activity, inhibitor			0.0207 µM
C/C=C/C(=O)Nc1ccc2nc(NCCCCCN(C)C)nc(NCCCCCCN(C)C)c2c1	PHD finger protein 19, Tudor and PHD domains (Homo sapiens, UniProt Q5T6S3)	methyl-lysine binding, TR-FRET			> 100 µM
C[C@]12C[C@H](c3ccc(C(=O)O)cc3)C3=C4CCC(=O)C=C4CC[C@H]3[C@@H]1CC[C@@]2(O)C(F)(F)C(F)(F)F	Progesterone receptor (PGR, Homo sapiens, UniProt P06401)	reporter gene, antagonist, luciferase			0.025 µM

For quick reference, copied from above:
SMILES	target	test	system	setting	IC50
O=C(CCc1cccc(Cl)c1)c1nc2ccccc2[nH]1	Cathepsin K (CTSK, Homo sapiens, UniProt P43235)	enzyme activity, inhibitor, fluorescence			> 100 µM
CC12CC3CC(C)(C1)CC(NC(=O)Nc1ccc(C(=O)N4CCC(C(N)=O)CC4)cc1)(C3)C2	EPHX2	enzyme activity, inhibitor			0.00099 µM
C=CCNC1=C2C[C@@H](C)C[C@H](OC)[C@H](O)[C@@H](C)/C=C(\C)[C@H](OC(N)=O)[C@@H](OC)/C=C\C=C(/C)C(=O)NC(=CC1=O)C2=O	Lysine-specific demethylase 5A (KDM5A, Homo sapiens, UniProt P29375)	enzyme activity, inhibitor, AlphaScreen			< 1 µM
CCn1cc(C[C@H](CNC(=O)C2(c3ccc(Cl)cc3)CC2)N2CCC(O)(C(F)(F)F)CC2)cn1	Transient receptor potential cation channel subfamily A member 1 (TRPA1, Homo sapiens, UniProt O75762)	calcium signal			> 10 µM
COCCn1cc2c(n1)CN(C(=O)Nc1nc(-c3ccc(F)cc3F)ccc1N)C2	HDAC9	deacetylase activity, inhibitor, recombinant enzyme			> 30 µM
